# Measurements gathered from unrelated publications.
# Compare with care: the assays were run in different laboratories. “And” joins repeats or separate records; there may be more than shown. ± gives the spread as reported.
Substance,target or system,assay,system,setting,how to read,measurement,result
NRVDSKETEC,human SCRIB PDZ3-4 tandem (MBP fusion),automated holdup,"peptide, purified PDZ protein","concentration not given, unit not given","reference: biotin control resin, higher = stronger binding",binding intensity,0.4
QLMPFGSLLDY,"HLA class I histocompatibility antigen, A alpha chain, allele A*02:01 (Homo sapiens, UniProt P04439)",conformational ELISA,peptide,concentration not given,"reference: positive control peptide, direction not given",binding score,6%
CTIL,"Protein farnesyltransferase (Rattus norvegicus, UniProt Q02293+Q04631)","peptide farnesylation, substrate",peptide,with: C15-Alk 4 µM,,kcat/KM,0.023 µM⁻¹ s⁻¹
6-carboxyfluorescein,"Solute carrier organic anion transporter family member 2A1 (SLCO2A1, Homo sapiens, UniProt Q92959, C143A)","compound uptake, substrate",HEK293F expressing SLCO2A1 C143A,50 µM,reference: wild type,uptake,25.3% and 19.4% and 22.3%
methyl-β-cyclodextrin,"Sodium- and chloride-dependent glycine transporter 1 (SLC6A9, Homo sapiens, UniProt P48067)","transport activity, [3H]glycine uptake",,"2.5 mg/mL, 1 min, with: glycine 300 µM",higher = more transport,glycine uptake rate,52.3 a.u. and 62 a.u. and 43 a.u. and 61.4 a.u. and 62.4 a.u.
BzATP,"P2X purinoceptor 7 (P2rx7, Rattus norvegicus, UniProt Q64663, I214A/Q143A)","ion current, agonist, two-electrode voltage clamp",Xenopus oocytes,1.2 µM,,normalized current,0
milbemycin oxime,"CDR1 (Candida albicans, UniProt Q5ANA3)","binding, microscale thermophoresis",,10 µM,,fraction bound,94.3%
QLIMQLMPF,"HLA class I histocompatibility antigen, A alpha chain, allele A*01:01 (Homo sapiens, UniProt P04439)",conformational ELISA,peptide,concentration not given,"reference: positive control peptide, direction not given",binding score,0.2%
GSGAGQITKV,human SCRIB PDZ3-4 tandem (MBP fusion),automated holdup,"peptide, purified PDZ protein","concentration not given, unit not given","reference: biotin control resin, higher = stronger binding",binding intensity,-0.14
11-deoxycorticosterone,,stopped-flow global kinetic fitting,,"4-state closed model (best), 40-fold adrenodoxin excess, with: substrate binding k-2",,rate constant,43.9 ± 1.72 min⁻¹
ITDFGRAKL,"HLA class I histocompatibility antigen, A alpha chain, allele A*24:02 (Homo sapiens, UniProt P04439)",conformational ELISA,peptide,concentration not given,"reference: positive control peptide, direction not given",binding score,15.1%

# A few entries again:
Substance,target or system,assay,system,setting,how to read,measurement,result
ITDFGRAKL,"HLA class I histocompatibility antigen, A alpha chain, allele A*24:02 (Homo sapiens, UniProt P04439)",conformational ELISA,peptide,concentration not given,"reference: positive control peptide, direction not given",binding score,15.1%
